Results gathered from unrelated publications.
A part holds a random share of what one study measured.

Series 1
Target: Interferon regulatory factor 7, full length, phosphomimetic (IRF7, Homo sapiens, UniProt Q92985, residues 1-503, S471D/S472D/S475D/S476D/S477D/S483D/S484D/S487D)
Method: protein-binding microarray
Form: double-stranded DNA, one strand shown
Medium: in vitro
Tested at: 2200 nM top
Notes: 60-bp whole probe
Together with: salmon DNA 0.4 mg/ml
Reference: random background probes
Direction: higher = stronger binding
Constant ends, left off below: GCCTAGCAC … GTCTTGATTCGCTTGACGCTGCTG
Residues (chain): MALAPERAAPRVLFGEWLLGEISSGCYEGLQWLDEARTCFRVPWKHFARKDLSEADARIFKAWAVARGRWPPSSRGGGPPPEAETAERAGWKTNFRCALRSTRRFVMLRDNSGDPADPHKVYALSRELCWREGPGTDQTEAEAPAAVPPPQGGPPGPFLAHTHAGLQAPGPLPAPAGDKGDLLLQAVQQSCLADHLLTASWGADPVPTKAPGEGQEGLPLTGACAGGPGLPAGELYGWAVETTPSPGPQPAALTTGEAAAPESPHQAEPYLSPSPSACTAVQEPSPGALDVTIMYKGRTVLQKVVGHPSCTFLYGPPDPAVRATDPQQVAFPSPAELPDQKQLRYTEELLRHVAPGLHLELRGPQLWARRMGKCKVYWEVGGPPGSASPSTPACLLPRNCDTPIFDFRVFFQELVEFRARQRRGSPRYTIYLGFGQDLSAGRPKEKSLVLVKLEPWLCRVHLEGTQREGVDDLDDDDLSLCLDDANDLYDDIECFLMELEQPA
For `TTAGGTATCCTTCTCCTTTAGTGCTAG`, “fitted relative affinity” read 1.2 z-score.
For `TCACTTTCCAATTGTCCTACTGTGCTA`, “fitted relative affinity” read 7.84 z-score.
`GACGAACCGAGTTTCGAGACGTGCTAG` — result for “fitted relative affinity”: 3.49 z-score.
`TTAGGACTGTGTTTCGGTTAGTGCTAG` — result for “fitted relative affinity”: 3.66 z-score.
`CCTTCCATCACTTTCCACTTGTGCTAG`: “fitted relative affinity” 5.6 z-score.

Series 2
Target: PABPC1L2, full length, GST fusion (mouse, UniProt A0ABA7IW68)
Method: RNAcompete
Form: RNA
Medium: in vitro
Tested at: 20 nM
Notes: 7-mer, probes averaged, single round
Reference: mean of 7-mers
Direction: higher = stronger binding
Residues (chain): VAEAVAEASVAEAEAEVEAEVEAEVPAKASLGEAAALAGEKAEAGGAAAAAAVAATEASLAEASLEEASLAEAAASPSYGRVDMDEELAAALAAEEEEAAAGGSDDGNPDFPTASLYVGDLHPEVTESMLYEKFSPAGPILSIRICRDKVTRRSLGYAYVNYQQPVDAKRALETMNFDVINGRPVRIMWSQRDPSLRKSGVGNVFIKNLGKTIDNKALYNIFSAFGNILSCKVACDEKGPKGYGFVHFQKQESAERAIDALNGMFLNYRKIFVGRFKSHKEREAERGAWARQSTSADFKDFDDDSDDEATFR
The 7-mer Z-score of `UGAGUCC` is reported as -0.309.
`CAGGGGC` gave a 7-mer Z-score of 0.251.
For `CGUAAAG`, the 7-mer Z-score was 0.158.
The 7-mer Z-score of `UGCAGCA` is reported as -0.191.
`GGUAAGU` has a 7-mer Z-score of -0.0808.

Series 3
Target: Sal-like protein 4, full length isoform B (SALL4, Homo sapiens, UniProt Q9UJQ4-2, residues 1-616)
Method: universal PBM
Form: double-stranded DNA, one strand shown
Medium: in vitro
Tested at: not given
Notes: 8-mer, flanks averaged, mean of replicates
Direction: higher = stronger binding
Target sequence (chain): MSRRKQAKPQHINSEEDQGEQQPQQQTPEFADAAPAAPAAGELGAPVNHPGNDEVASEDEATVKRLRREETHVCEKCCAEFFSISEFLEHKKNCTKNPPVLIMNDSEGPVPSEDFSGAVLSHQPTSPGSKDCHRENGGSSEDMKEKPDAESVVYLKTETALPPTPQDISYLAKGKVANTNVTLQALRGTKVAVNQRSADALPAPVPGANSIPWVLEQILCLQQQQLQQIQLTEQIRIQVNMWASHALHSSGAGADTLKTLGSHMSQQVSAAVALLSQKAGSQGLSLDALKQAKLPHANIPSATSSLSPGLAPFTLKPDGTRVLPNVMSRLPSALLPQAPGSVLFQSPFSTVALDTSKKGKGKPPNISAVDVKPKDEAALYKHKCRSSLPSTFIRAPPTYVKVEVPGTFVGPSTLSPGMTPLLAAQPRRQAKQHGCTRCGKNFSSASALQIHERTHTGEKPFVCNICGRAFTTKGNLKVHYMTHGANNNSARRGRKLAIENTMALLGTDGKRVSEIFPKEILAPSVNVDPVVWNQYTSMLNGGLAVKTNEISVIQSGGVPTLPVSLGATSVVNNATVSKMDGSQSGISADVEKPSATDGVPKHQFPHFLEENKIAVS
`CAGTCAGC` has an E-score of -0.193.
`CCAACCTA` has an E-score of 0.01.
`AAAGCACT` gave an E-score of 0.0134.
With `GGGCGACA` the E-score was -0.257.
`AAAGTTAT` has an E-score of 0.314.
`AGTACGAT` gave an E-score of 0.204.
For `TCCTCGCA`, the E-score was -0.208.

Other studies, line by line
With `PhoQ, residues 284 288 289 292 302 303 TLSLKA` the fold induction was 3.23 (PhoP, residues 12 14 15 18 19 STWGI (Escherichia coli, UniProt P23836); Sort-seq, measured: YFP reporter; E. coli; PhoQ-PhoP variant library, together with: 10 µM Mg2+; reference: high Mg2+ state, higher = stronger signaling).

Excerpt of the above (other studies, line by line):
With `PhoQ, residues 284 288 289 292 302 303 TLSLKA` the fold induction was 3.23 (PhoP, residues 12 14 15 18 19 STWGI (Escherichia coli, UniProt P23836); Sort-seq, measured: YFP reporter; E. coli; PhoQ-PhoP variant library, together with: 10 µM Mg2+; reference: high Mg2+ state, higher = stronger signaling).
